Measured values of several laboratories.
Each line is one published result; not all experiments were run side by side. Several values in a cell are separate wells, animals, samples, runs or records.
Sequence of UniProt Q9UM07 (whole entry, looked up): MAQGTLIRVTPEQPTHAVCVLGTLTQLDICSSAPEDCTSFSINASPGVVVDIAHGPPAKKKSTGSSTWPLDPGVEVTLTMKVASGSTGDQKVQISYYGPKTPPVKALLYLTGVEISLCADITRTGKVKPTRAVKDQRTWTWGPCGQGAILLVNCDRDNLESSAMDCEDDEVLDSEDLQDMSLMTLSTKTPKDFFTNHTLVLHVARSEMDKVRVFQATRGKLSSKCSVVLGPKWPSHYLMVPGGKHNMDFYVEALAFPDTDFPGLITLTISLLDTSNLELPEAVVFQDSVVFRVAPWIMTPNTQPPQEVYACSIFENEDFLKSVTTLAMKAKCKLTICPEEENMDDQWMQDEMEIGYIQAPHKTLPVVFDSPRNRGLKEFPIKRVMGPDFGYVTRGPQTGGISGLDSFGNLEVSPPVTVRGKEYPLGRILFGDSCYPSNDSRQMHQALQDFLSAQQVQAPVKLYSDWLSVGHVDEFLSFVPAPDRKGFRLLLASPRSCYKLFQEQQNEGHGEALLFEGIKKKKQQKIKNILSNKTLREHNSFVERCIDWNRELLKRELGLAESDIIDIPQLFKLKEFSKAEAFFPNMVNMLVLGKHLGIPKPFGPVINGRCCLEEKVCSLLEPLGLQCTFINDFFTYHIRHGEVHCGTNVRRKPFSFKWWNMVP
Sequence of UniProt Q61206 (whole entry, looked up): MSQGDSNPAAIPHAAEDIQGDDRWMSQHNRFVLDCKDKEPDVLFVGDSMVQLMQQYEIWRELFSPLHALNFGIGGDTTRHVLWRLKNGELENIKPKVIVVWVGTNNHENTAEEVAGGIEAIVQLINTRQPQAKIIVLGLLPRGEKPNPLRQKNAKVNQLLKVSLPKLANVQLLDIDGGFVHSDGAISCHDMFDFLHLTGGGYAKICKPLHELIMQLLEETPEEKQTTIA
Sequence of UniProt Q92630 (whole entry, looked up): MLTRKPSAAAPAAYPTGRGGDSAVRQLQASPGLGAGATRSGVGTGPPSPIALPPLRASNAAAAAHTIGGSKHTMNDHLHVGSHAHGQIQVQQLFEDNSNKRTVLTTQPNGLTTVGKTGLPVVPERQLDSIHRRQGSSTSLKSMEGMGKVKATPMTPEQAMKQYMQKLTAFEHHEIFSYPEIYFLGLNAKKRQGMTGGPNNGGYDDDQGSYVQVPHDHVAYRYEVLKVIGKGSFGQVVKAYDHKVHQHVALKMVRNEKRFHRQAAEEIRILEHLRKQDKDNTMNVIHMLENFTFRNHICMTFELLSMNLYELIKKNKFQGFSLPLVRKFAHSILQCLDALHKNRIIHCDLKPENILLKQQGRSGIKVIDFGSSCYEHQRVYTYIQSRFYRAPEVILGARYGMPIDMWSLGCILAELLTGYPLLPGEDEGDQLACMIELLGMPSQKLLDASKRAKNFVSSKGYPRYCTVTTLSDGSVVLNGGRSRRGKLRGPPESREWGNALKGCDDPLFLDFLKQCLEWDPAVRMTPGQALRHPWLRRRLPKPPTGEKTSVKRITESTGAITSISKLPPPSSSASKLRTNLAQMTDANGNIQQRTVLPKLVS
Sequence of UniProt P47898 (whole entry, looked up): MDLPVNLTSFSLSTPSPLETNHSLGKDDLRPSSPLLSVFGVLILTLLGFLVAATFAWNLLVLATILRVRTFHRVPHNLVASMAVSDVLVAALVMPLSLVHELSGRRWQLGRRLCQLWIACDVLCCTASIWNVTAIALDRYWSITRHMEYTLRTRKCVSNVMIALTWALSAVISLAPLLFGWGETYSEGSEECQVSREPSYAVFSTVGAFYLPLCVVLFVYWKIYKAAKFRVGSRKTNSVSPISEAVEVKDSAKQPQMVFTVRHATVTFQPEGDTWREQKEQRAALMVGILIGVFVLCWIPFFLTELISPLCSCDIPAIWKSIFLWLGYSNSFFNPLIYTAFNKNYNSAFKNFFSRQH
Sequence of UniProt P00519 (whole entry, looked up): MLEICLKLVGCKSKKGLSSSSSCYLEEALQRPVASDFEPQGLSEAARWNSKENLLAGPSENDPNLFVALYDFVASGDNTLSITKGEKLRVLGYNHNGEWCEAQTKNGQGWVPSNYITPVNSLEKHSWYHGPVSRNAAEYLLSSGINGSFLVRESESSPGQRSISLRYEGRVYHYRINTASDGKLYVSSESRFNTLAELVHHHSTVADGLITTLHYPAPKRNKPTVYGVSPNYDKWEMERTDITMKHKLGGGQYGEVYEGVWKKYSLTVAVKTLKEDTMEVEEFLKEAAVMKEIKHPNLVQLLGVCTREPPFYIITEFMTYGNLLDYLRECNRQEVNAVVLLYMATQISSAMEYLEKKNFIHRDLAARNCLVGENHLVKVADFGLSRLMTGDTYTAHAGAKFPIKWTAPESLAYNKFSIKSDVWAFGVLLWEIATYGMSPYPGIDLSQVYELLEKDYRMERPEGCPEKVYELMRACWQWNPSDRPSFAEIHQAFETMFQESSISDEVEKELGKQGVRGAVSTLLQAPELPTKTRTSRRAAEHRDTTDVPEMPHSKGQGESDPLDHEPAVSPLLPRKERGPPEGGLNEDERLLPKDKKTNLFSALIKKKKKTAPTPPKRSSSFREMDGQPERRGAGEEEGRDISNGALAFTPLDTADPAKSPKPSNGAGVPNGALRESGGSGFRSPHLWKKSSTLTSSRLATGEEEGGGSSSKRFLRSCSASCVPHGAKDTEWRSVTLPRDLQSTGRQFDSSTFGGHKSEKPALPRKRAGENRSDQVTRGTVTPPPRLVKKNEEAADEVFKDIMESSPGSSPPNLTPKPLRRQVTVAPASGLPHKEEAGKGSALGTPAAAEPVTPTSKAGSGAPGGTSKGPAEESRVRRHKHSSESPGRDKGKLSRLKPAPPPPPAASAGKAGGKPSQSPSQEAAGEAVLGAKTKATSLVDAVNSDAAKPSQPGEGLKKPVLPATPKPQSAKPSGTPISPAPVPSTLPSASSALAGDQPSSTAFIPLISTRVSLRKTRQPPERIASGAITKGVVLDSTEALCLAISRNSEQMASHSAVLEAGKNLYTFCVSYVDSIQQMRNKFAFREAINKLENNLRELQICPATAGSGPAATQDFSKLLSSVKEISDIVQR
Sequence of UniProt Q13153 (whole entry, looked up): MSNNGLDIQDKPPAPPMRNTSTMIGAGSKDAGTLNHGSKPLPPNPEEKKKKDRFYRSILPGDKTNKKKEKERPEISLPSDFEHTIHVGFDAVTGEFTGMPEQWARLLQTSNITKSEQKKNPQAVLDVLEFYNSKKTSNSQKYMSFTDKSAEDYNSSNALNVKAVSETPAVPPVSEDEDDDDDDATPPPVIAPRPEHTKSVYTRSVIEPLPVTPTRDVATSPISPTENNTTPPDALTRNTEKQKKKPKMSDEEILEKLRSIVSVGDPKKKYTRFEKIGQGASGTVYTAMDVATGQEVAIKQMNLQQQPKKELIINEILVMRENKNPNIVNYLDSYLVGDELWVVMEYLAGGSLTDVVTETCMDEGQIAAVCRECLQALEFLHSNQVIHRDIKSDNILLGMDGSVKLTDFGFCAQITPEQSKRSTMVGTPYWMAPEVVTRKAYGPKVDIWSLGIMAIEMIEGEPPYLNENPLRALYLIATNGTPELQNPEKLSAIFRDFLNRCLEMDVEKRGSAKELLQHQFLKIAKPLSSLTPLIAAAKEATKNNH
Sequence of UniProt O75716 (whole entry, looked up): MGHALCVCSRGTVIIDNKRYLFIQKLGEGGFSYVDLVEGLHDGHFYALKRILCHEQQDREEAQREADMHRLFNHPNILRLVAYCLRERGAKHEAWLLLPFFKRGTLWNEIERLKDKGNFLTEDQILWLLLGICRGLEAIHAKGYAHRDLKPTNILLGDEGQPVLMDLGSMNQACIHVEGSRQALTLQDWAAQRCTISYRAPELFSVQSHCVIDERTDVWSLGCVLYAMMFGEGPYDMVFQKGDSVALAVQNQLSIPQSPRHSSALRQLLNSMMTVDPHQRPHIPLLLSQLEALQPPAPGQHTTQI

Structure (SMILES)	tested on	assay	system	setting	how to read	endpoint	value
CN(C)CC#CCC(O)(c1ccccc1)C1CCCC1.Cl (stereo not shown)	Trypanosoma cruzi	reporter mRNA translation, inhibitor, refers to: capped polyadenylated Renilla luciferase mRNA	cell-free extract	concentration not given	reference: positive over negative control	translation activity	97.9% and 100% and 102% and 106%
Cc1sc2c(c1C)C(c1ccc(Cl)cc1)=NC(CC(=O)OC(C)(C)C)c1nnc(C)n1-2 (stereo not shown)	HTR5A (Homo sapiens, UniProt P47898)	ligand displacement, radioligand		1 µM		inhibition	-7%
CC(C)CC(O)(CC(C)C)c1cn(C(=O)N2CCCC2)nn1	Platelet-activating factor acetylhydrolase IB subunit alpha2 (Mus musculus, UniProt Q61206)	probe labelling, inhibitor, competitive ABPP-SILAC, refers to: Pafah1b2	mouse T cells	concentration not given, 4 h, protein level	reference: treated over DMSO cells, lower = stronger inhibition	median SILAC activity ratio	1.24
O=C1NC(=O)c2c1c1cc(F)c[n+]3c1c1c2c2cc(O)ccc2[n]1[Ru-4]312([N]=C=S)[S+]3CC[S+]1CC[S+]2CC3 (stereo not shown)	DYRK2 (Homo sapiens, UniProt Q92630)	enzyme activity		100 nM, human enzyme, together with: 10 µM ATP	reference: untreated	remaining activity	110%
CN(C)[C@H]1C[C@@]23CC[C@@]4(O2)C(=CC[C@]2(C)[C@@H](c5ccc6ccncc6c5)CC[C@H]24)C=C3[C@@H](O)[C@@H]1O	STK16 (Homo sapiens, UniProt O75716)	ATP probe labelling, inhibitor, KiNativ profiling		0.1 µM		inhibition	-5%
CC(C)[C@H]1NC(=O)C[C@H]2/C=C/CCSSC[C@@H](NC1=O)C(=O)N[C@H](Cc1cccc3ccccc13)C(=O)NCC(=O)O2	PAK1 (Homo sapiens, UniProt Q13153)	enzyme activity, inhibitor		10 µM		inhibition	2.4%
N[C@H](C(=O)N1CCCC1)C1CCN(c2nccc3c(-c4ncc(Cl)cc4Cl)cccc23)CC1	PADI4 (Homo sapiens, UniProt Q9UM07)	thermal shift		3.004 µM		melting temperature	62.1 °C and 61.8 °C
CCCn1ncc(CN2CCCC(C(=O)c3cccc(OC)c3)C2)c1C (stereo not shown)	Trypanosoma cruzi	reporter mRNA translation, inhibitor, refers to: Renilla luciferase mRNA	cell-free extract	concentration not given, test 2	reference: positive over negative control	translation activity	102% and 113%
Nc1ccc(/C=C/C(=O)N2CCc3c(oc4c(-c5ccc(F)cc5)cc(-c5ccc(C(=O)N6CCC(F)(F)CC6)cn5)cc34)C2)cn1	Tyrosine-protein kinase ABL1, phosphorylated (ABL1, Homo sapiens, UniProt P00519)	binding, competition with immobilised ligand		1 µM		remaining binding	99%
COc1ccc(N2CCN(C(CNC(=O)Oc3ccccc3)c3cccnc3)CC2)cc1 (stereo not shown)	Trypanosoma cruzi	reporter mRNA translation, inhibitor, refers to: capped polyadenylated Renilla luciferase mRNA	cell-free extract	concentration not given	reference: control RNA	relative translation	101%
C#CCN(Cc1ccc2nc(C)[nH]c(=O)c2c1)c1ccc(C(=O)N[C@@H](CCC(=O)OC)C(=O)OC)cc1	Mycobacterium tuberculosis	bacterial growth, inhibitor	H37Rv pptT conditional knockdown	PptT depleted, ATc withheld		MIC90	> 100 µM
CS(C)(=O)=Nc1ccc(-c2ccc(-c3nc4cc(O[C@@H]5CO[C@H]6[C@@H]5OC[C@H]6O)[nH]c4cc3F)cc2)cc1	MET (Homo sapiens, UniProt P08581, Y1230C)	enzyme activity, inhibitor		10 µM		inhibition	-31%
CC(C)CC(C(=O)N1CC2(CC1C#N)C(=O)Nc1ccccc12)N(C)C(=O)c1cc2c(F)cc(F)c(F)c2[nH]1 (stereo not shown)	Replicase polyprotein 1ab, 3C-like protease (rep, Human coronavirus 229E, UniProt P0C6X1)	enzyme activity		0.01001 µM		remaining activity	1.6%

A few entries again:
Structure (SMILES)	tested on	assay	system	setting	how to read	endpoint	value
CC(C)CC(C(=O)N1CC2(CC1C#N)C(=O)Nc1ccccc12)N(C)C(=O)c1cc2c(F)cc(F)c(F)c2[nH]1 (stereo not shown)	Replicase polyprotein 1ab, 3C-like protease (rep, Human coronavirus 229E, UniProt P0C6X1)	enzyme activity		0.01001 µM		remaining activity	1.6%
CS(C)(=O)=Nc1ccc(-c2ccc(-c3nc4cc(O[C@@H]5CO[C@H]6[C@@H]5OC[C@H]6O)[nH]c4cc3F)cc2)cc1	MET (Homo sapiens, UniProt P08581, Y1230C)	enzyme activity, inhibitor		10 µM		inhibition	-31%
